Published values collected from several papers.
A part holds a random share of what one study measured.

Block 1 — effect on: enzyme activity; mode: inhibitor; concentration: 0.5 µM; baseline: control
Target: Interleukin-1 receptor-associated kinase 1 (IRAK1, Homo sapiens, UniProt P51617)
Chain of UniProt P51617 (whole entry, looked up): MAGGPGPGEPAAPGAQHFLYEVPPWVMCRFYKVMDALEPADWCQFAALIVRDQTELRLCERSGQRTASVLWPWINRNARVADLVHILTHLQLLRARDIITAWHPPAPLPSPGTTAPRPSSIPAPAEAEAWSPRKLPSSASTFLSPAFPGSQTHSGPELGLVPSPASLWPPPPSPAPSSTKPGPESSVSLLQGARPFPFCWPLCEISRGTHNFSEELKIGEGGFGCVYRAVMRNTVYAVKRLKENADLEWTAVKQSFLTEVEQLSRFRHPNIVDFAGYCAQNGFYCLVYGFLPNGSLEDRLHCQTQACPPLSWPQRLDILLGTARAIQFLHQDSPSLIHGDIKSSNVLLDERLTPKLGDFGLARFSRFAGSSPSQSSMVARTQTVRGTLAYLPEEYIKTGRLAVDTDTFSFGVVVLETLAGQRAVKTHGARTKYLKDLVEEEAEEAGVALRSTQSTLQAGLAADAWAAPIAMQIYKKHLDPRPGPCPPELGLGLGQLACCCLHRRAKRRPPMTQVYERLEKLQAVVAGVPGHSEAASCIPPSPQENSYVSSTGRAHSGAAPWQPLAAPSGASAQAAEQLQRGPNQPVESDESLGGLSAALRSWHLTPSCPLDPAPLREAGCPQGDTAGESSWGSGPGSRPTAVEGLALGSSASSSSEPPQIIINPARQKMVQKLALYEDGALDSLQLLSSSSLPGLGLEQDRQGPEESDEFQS
`Cc1ccc(Nc2nccc(N(C)c3ccc4c(C)n(C)nc4c3)n2)cc1S(N)(=O)=O` has a remaining activity of 97%.
With `Nc1[nH]nc2nc3ccccc3nc12` the remaining activity was 88.9%.
`COc1cc2nccc(Oc3ccc(NC(=S)NC(=O)c4ccccc4C)cc3)c2cc1OC` gave a remaining activity of 99.6%.
The remaining activity of `Cc1nc(-c2ccccc2)c(-c2ccncc2)o1` is reported as 124%.
The remaining activity of `C#Cc1cccc(Nc2ncnc3cc(OCCOC)c(OCCOC)cc23)c1` is reported as 95.9%.
`CNC(=O)c1cc(Oc2ccc(NC(=O)Nc3ccc(Cl)c(C(F)(F)F)c3)cc2)ccn1` gave a remaining activity of 101%.
`Oc1ccc(-c2nc(-c3ccncc3)c(-c3ccc(F)cc3)[nH]2)cc1` has a remaining activity of 123%.
`OCC(O)CCON=C1C(c2c(O)[nH]c3ccccc23)=Nc2ccccc21` (stereo not shown) gave a remaining activity of 34.5%.
For `COc1cc2ncnc(Nc3ccc(F)c(Cl)c3)c2cc1OCCCN1CCOCC1`, the remaining activity was 57.6%.
For `NCCNc1ncc(C(N)=O)c(Nc2cccc(C(F)(F)F)c2)n1`, the remaining activity was 109%.
`Nc1ncnc2n[nH]c(Nc3ccc(F)cc3)c12` gave a remaining activity of 91.8%.
With `Cc1ccc(NC(=O)c2ccc(CN3CCN(C)CC3)cc2)cc1Nc1nc(-c2cccnc2)cs1` the remaining activity was 104%.
`COc1ccc(CNC(=O)Nc2ncc([N+](=O)[O-])s2)cc1` gave a remaining activity of 108%.
With `COc1cc2ncnc(Nc3ccc(Oc4ccccc4)cc3)c2cc1OC` the remaining activity was 122%.
The remaining activity of `CCOC(=O)c1c(C)[nH]c(/C=C2\C(=O)Nc3ccccc32)c1C` is reported as 111%.
The remaining activity of `CC(C)[C@H](CO)Nc1nc(Nc2cc(N)cc(Cl)c2)c2ncn(C(C)C)c2n1` is reported as 97.1%.

Block 2 — technique: RNA Bind-n-Seq; molecule type: RNA; matrix: in vitro; concentration: 365 nM; baseline: no-protein control; direction: higher = stronger binding
Target: RNA binding protein fox-1 homolog 2, RRM domain, GST-SBP tag (RBFOX2, Homo sapiens, UniProt O43251-10, residues 100-194)
Setting: natural RNA segment, single round, ends assumed
Shared flanks, not repeated: GGGAGUUCUACAGUCCGACGAUC … UGGAAUUCUCGGGUGCCAA
Construct (chain): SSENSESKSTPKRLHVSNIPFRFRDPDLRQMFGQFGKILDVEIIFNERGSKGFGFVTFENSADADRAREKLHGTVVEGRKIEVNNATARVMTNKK
`GCCUAUCUUUUCCCCUUACAUAUGUCUUUGUCCUUCUUUCCCAAAGAUGUCAAAUACAAUGCAGCAUUUUCAUCUUGUUCUUUCAAAGUUAAUAGUCUAUUAUUUUAUGU` — result for “RBNS enrichment (R)”: 1.27.
For `CAACUCAGCACACACUCCUUCAGCCUGAGAUUUUUCAAAUCUUUGGCAACUGAGAUGGGAUGGAUCCAUUUAAUUAGAGAACGGUGAAAUCUUUCUAGUUGGGCUUUUUG`, “RBNS enrichment (R)” read 0.351.
`AGUGAAACGCUUUGUAAGGAGGCAUCUGGGUAAUUAUGCAAAUAAGUUUGUGAUAAUUGCUCCAGUUCUACAAACAACAGAAUUUUAAAUAGAGGAAGUGGAUAAAGGAG`: “RBNS enrichment (R)” 0.299.
For `UAAUAACCUGUUUUGUGUGCAGUUAAUCCAUUCUGAAGCAGGUGAAAGGUCAGUAUUUUAGCAUUUUAAAAGAUGAGUUAUAUAAUGUCUGCUUCCAGCCAGUCUGCAAC`, “RBNS enrichment (R)” read 0.616.
For `UAAUGUGCGACGUGUCGCCCAAGCUCUGCCCUAAGAAGCUUCUUAGUGACUCCAGCCACCUGAGAGCGCCCAGGAGCACCAGGGGGGGCCAGAUGCGCUUCCUGAGCUCU`, “RBNS enrichment (R)” read 0.25.
Under “RBNS enrichment (R)”, `UAGUUGUGUGGCGUGAACUCUGCCCGUGUGUUCUCAAAUUCCCCAGCUUGGGAAAUAGCCCUUGGUGUGGGUUUUAUCUCUGGUUUGUGUUCUCCGUGGUGGAAUUGACC` is recorded as 0.483.
`UUCCUCAUUGUUGUUUGGUAUGCGCACAGUUCCUGUGGGACUGGGCCGUGAGUUUUCCAUUGGAAAGAAGUUCAGUGGUCCCAUUGUUAACUCAGCCUCAAAUCUCAACU`: “RBNS enrichment (R)” 0.335.
`UGCACAUAACCAAAUGGGGGCCAAUGGCACAGUACCUUACUCAUCAUUUAAAAACUAUAUUUACAGAAGAUGUUUGGUUGCUGGGGGGGCUUUUUUAGGUUUUGGGGCAU` — result for “RBNS enrichment (R)”: 0.875.

Block 3 — effect on: cell-free assay; concentration: 10 µM
Target: 5-hydroxytryptamine receptor 1D (HTR1D, Homo sapiens, UniProt P28221)
Chain of UniProt P28221 (whole entry, looked up): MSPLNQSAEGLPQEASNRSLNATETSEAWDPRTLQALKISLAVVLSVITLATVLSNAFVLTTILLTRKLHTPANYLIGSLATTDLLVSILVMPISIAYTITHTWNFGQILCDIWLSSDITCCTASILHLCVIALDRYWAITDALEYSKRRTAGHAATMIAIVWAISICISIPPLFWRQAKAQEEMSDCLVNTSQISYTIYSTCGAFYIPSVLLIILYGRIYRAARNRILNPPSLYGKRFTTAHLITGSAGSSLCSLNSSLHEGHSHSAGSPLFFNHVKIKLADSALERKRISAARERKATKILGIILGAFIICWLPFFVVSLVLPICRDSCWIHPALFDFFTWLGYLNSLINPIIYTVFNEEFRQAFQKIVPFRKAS
For `CN(C)c1ncnc(-c2ccc3nc(Nc4cc(CN5CCN(C(=O)CC(F)(F)F)CC5)ccn4)[nH]c3c2)c1Cl`, the inhibition was 19.5%.
For `Nc1nc(NCc2ccccc2)nc(-c2ccccc2CO)n1`, the inhibition was 11.2%.
The inhibition of `CC[C@H](CC(=O)O)n1c(=O)c2ncccc2n(Cc2cn(C)c3cc(C)cc(C)c23)c1=O` is reported as 52.9%.
For `CCC(F)(F)c1cc(N2CCC(S(C)(=O)=O)CC2)nc2sc(C(N)=O)c(N)c12`, the inhibition was 26.9%.
For `c1ccc(C2CCN(c3cnc4c(N5CCOCC5)nccn34)CC2)cc1`, the inhibition was 1.09%.
The inhibition of `C[C@H](c1ccnc(Nc2nc3ccc(-c4cc(N(C)C)ncn4)cc3[nH]2)c1)N1CCN(C(=O)CC(F)(F)F)CC1` is reported as 23.2%.
`COc1cc(N[C@@H]2CCCC[C@]2(O)C(F)(F)F)ccc1F` has an inhibition of 2.77%.
`NC(=O)c1ccc2nc(-c3ccc(C4(N)CCC4)cc3)c(-c3ccccc3)n2n1` gave an inhibition of 12.2%.
For `COc1cccc(NC(=O)c2nc3scc(CN(C)Cc4ccccc4)c3c(=O)[nH]2)c1`, the inhibition was -0.959%.
For `CNC(=O)Nc1ccc2c(c1)CC[C@]21OC(=O)N(CC(=O)N(Cc2ccc(F)cc2)[C@@H](C)C(F)(F)F)C1=O`, the inhibition was 18%.
`CC1CCN(c2ccnc(NCc3cn(C)cn3)n2)CC1` has an inhibition of 81.9%.

Block 4 — technique: protein-binding microarray; molecule type: double-stranded DNA, one strand shown; matrix: in vitro; concentration: 2200 nM top; setting: 60-bp whole probe; added: salmon DNA 0.4 mg/ml; baseline: random background probes; direction: higher = stronger binding; shared flanks, not repeated: GCCTAGCAC … GTCTTGATTCGCTTGACGCTGCTG
Target: Interferon regulatory factor 7, full length, phosphomimetic (IRF7, Homo sapiens, UniProt Q92985, residues 1-503, S471D/S472D/S475D/S476D/S477D/S483D/S484D/S487D)
Target sequence (chain): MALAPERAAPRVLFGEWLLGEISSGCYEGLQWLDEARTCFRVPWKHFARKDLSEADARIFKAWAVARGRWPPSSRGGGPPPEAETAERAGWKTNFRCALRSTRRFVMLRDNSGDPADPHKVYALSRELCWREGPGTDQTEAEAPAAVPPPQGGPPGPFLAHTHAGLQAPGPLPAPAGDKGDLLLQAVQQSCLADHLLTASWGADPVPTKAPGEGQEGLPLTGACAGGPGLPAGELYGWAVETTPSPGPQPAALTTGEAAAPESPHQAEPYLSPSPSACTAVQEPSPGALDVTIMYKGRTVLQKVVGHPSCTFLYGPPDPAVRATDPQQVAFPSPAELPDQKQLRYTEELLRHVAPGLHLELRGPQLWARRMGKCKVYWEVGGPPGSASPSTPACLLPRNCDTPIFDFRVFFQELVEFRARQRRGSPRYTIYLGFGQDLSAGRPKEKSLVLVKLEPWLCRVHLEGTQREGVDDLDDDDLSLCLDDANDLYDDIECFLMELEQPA
`TCATGTTTGATCTTGATACTGTGCTAG` — result for “fitted relative affinity”: 1.1 z-score.
For `TTAGGTATCGACTTTCGGTGAGTGCTA`, “fitted relative affinity” read 1.92 z-score.
For `TTAGAACTGGGGTTTCGAGTAGTGCTA`, “fitted relative affinity” read 1.1 z-score.
`ATTTAAAACAACTTTCAAAGGGTGCTA` — result for “fitted relative affinity”: -1.08 z-score.
For `TTAGGACTGGGTTTCGTTTAGTGCTAG`, “fitted relative affinity” read 3.05 z-score.
`GTGTGCATCTATCTTAAATAGTGCTAG`: “fitted relative affinity” 0.223 z-score.
For `TTAGGTTTCGACTATTGGTTAGTGCTA`, “fitted relative affinity” read 2.53 z-score.
Under “fitted relative affinity”, `GACGCTTTCGGTCTCGGGACGTGCTAG` is recorded as 7.47 z-score.

For quick reference, copied from above (block 1):
`Cc1ccc(Nc2nccc(N(C)c3ccc4c(C)n(C)nc4c3)n2)cc1S(N)(=O)=O` has a remaining activity of 97%.
With `Nc1[nH]nc2nc3ccccc3nc12` the remaining activity was 88.9%.
`COc1cc2nccc(Oc3ccc(NC(=S)NC(=O)c4ccccc4C)cc3)c2cc1OC` gave a remaining activity of 99.6%.
The remaining activity of `Cc1nc(-c2ccccc2)c(-c2ccncc2)o1` is reported as 124%.
The remaining activity of `C#Cc1cccc(Nc2ncnc3cc(OCCOC)c(OCCOC)cc23)c1` is reported as 95.9%.
`CNC(=O)c1cc(Oc2ccc(NC(=O)Nc3ccc(Cl)c(C(F)(F)F)c3)cc2)ccn1` gave a remaining activity of 101%.
